{"data": "Results from different studies", "note": "Each numbered part is a random draw from the data of one study; scales do not carry over between parts.", "UniProt Q13153, sequence (whole entry, looked up)": "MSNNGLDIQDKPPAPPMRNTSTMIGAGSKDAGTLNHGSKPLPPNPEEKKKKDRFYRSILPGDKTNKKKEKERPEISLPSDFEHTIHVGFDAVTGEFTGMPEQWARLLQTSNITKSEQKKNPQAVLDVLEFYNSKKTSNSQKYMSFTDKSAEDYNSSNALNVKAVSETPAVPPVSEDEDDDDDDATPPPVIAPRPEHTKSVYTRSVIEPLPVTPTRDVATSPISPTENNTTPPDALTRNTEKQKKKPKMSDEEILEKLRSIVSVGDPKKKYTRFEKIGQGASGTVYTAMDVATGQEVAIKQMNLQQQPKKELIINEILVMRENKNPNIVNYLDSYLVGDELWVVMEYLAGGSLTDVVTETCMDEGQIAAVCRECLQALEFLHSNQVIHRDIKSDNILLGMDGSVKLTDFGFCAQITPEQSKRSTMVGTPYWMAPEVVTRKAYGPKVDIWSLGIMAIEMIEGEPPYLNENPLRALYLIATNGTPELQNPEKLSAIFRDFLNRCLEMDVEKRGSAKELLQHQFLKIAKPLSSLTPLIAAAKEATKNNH", "UniProt Q9HCP0, sequence (whole entry, looked up)": "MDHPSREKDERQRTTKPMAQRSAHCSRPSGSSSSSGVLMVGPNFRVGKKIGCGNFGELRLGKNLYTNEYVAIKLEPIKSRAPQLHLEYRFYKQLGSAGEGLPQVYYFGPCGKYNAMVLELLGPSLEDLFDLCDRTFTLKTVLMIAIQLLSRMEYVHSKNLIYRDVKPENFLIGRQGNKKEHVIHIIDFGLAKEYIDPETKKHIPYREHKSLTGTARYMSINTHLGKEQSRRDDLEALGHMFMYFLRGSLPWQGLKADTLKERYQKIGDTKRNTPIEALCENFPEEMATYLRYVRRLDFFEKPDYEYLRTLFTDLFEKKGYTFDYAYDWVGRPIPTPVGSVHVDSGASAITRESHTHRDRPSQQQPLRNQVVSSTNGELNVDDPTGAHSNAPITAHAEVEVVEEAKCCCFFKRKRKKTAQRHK", "UniProt Q9NYY3, sequence (whole entry, looked up)": "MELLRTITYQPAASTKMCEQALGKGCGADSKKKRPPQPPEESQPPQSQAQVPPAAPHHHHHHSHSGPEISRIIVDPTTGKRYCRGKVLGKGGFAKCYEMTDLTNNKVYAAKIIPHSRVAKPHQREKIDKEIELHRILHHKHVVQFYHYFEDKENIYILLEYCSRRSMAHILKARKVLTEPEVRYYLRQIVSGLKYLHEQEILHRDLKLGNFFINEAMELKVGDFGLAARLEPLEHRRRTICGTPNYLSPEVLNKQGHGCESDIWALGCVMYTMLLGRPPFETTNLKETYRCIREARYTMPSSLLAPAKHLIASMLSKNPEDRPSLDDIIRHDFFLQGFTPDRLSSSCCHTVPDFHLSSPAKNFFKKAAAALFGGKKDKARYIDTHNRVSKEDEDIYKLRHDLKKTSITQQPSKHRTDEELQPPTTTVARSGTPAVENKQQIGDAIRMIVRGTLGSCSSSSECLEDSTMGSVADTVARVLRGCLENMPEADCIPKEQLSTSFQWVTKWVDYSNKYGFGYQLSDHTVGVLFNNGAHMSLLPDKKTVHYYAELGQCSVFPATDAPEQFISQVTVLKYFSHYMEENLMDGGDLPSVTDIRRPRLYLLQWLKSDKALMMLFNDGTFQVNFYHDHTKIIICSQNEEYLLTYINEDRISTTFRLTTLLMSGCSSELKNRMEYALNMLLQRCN", "UniProt Q15349, sequence (whole entry, looked up)": "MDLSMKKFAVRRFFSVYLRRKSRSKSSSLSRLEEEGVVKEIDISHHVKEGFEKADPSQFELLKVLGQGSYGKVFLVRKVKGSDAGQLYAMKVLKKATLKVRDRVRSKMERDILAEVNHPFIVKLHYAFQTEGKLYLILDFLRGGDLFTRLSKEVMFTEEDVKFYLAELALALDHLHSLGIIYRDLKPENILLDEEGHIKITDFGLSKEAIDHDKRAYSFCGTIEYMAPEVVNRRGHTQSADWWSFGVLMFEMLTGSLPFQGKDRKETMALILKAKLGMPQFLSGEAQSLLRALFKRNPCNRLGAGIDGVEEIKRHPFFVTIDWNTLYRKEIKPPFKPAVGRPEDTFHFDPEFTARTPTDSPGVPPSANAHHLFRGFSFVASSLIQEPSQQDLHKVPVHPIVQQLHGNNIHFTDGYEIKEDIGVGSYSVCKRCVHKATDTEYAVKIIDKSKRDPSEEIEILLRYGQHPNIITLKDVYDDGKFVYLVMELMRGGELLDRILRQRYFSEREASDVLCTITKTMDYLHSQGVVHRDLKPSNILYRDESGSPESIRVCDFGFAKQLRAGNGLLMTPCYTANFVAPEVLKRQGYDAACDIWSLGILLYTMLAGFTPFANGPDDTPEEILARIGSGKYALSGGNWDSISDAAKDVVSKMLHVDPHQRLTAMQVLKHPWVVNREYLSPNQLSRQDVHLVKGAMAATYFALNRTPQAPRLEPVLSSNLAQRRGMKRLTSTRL"}
{"data": "Series 1", "Compound": "Nc1c(C(=O)NCc2ccc(C(=O)NCCCC3CCCCC3)cc2)cnn1-c1ccccc1", "observed": "cell-free assay", "technique": "competition with immobilised ligand", "concentration": "0.1 µM"}
{"target": "Serine/threonine-protein kinase PAK 1 (PAK1, Homo sapiens, UniProt Q13153)", "remaining binding [%]": 100}
{"target": "Serine/threonine-protein kinase PLK2 (PLK2, Homo sapiens, UniProt Q9NYY3)", "remaining binding [%]": 100}
{"target": "Ribosomal protein S6 kinase alpha-2, N-terminal kinase domain (RPS6KA2, Homo sapiens, UniProt Q15349)", "remaining binding [%]": 100}
{"target": "Casein kinase I isoform gamma-1 (CSNK1G1, Homo sapiens, UniProt Q9HCP0)", "remaining binding [%]": 100}
{"data": "Series 2", "target": "RNA binding protein fox-1 homolog 2, RRM domain, GST-SBP tag (RBFOX2, Homo sapiens, UniProt O43251-10, residues 100-194)", "technique": "RNA Bind-n-Seq", "form": "RNA", "matrix": "in vitro", "concentration": "365 nM", "notes": "natural RNA segment, single round, ends assumed", "reference": "no-protein control", "direction": "higher = stronger binding", "all sequences stand within": "GGGAGUUCUACAGUCCGACGAUC … UGGAAUUCUCGGGUGCCAA", "Target sequence (chain)": "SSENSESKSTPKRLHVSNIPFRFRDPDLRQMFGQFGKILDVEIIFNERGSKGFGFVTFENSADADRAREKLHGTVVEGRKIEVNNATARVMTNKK"}
{"Sequence": "GAGAGGGGUGUUUCUGCCCGGGUUGCCCUCCUUCAGUGAGUCAGAAGAACCUUCUGGGCCUAGAGGCAGACGCUGCAUUGCACUAUUCCAGUGUCUUCCACGGAGCCUCU", "RBNS enrichment (R)": 0.597}
{"Sequence": "AACAUUUUGGAUUUUCAUAUGUGUCUGAUAAGUGGUUGAAUAGUCGUUUGGCGCUGUUGUAUGGUGUGAUUGUCAGUGUAUGGUGUCACUUCCUAUAGCCAGCCAGCAUA", "RBNS enrichment (R)": 0.291}
{"Sequence": "CCGGAAGUUCAGGCCACCAGACGUAGUGAUUUGUAAGAAAUUACUGUCUCCUCAGUGAACCUCCUAGUUUCUUUAUAGACUUAACCUUCCCUUCAGUUAAAGGGUUUCUU", "RBNS enrichment (R)": 0.227}
{"Sequence": "AUGGAUAACUCUGUGAACAGUCUUGACUUUUUGUAUCAUGAGACAGAGUGCCUAAGAGAAACCCUUGCACCUGGGAGCGCUGCUUGGCUCUAUCUCUACAACAUUUAAUG", "RBNS enrichment (R)": 0.77}
{"Sequence": "GAAAAUUUCAAUUGCUAAAAAAAAAUCAAAGCACUCAUUCACUUGGGGGGAGGAUCCUACGCAGGGGGGACUUGGUGCGUAUAUUAAGGGCUAUAUUUUUCUAGCAUUUG", "RBNS enrichment (R)": 1.17}
{"Sequence": "CCUCGUGUUGAGGUUCCAGACUUAGAAACAGACCCCUCUGUACAGGGGGAUUGUGGUGAGUGAGAAUCAAGGCCACCUUGUGUGUUUUCUCACUCUCGAAUGCAAGUGGG", "RBNS enrichment (R)": 1.86}
{"Sequence": "GAUGCUUUUCUUCUAUAUUCUUACUCUGUACAAAUAAAGAAGUUGCUUGUUGUUUGAGAAGUUUAACCCCGUUGCUUGUUGUUCUGCAGCCCUGUCUACUUGGGCACCCC", "RBNS enrichment (R)": 0.725}
{"Sequence": "UACUUUGUGCUGUGCCAGUGGCUCUGCCCAGGCUCCGCCAUCCCUUUACUGGAGUUCAUUGGUCAGUGCACAGUGCAGCCACAGGACUGACCGUCGUAGGCUUCCAUUUU", "RBNS enrichment (R)": 0.267}
{"data": "Series 3", "target": "Centromere-binding protein 1, full length, N-terminal tag (CBF1, Saccharomyces cerevisiae, UniProt P17106, residues 1-351)", "technique": "protein-binding microarray", "form": "double-stranded DNA, one strand shown", "matrix": "in vitro", "concentration": "0.8 µM", "notes": "whole 60-bp probe, no competitor", "direction": "higher = stronger binding", "all sequences stand within": "… GTCTTGATTCGCTTGACGCTGCTG", "UniProt P17106, sequence (whole entry, looked up)": "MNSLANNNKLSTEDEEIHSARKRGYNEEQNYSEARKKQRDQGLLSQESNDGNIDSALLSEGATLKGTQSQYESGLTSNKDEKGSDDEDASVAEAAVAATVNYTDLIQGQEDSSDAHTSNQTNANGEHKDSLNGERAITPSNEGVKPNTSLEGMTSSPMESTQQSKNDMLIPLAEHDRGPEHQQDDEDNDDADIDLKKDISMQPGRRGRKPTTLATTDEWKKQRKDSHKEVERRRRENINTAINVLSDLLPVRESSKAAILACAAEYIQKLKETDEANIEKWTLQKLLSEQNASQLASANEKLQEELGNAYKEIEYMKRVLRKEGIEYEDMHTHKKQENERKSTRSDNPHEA"}
{"Sequence": "CTATGCTCGTATTTTCACCTCACTTCTCTTTCTTTC", "fluorescence intensity [a.u.]": 522}
{"Sequence": "CTATTTTGTATCCTTTACATCAGGAATAACGTATTC", "fluorescence intensity [a.u.]": 559}
{"Sequence": "GAACCCCGTATCCCGCACGTTGTTAAGTTAAACTAG", "fluorescence intensity [a.u.]": 603}
{"Sequence": "CCTAACTACTATAGTCACGTTTCATAGCTTCGTACA", "fluorescence intensity [a.u.]": 2210}
{"Sequence": "GAAAATAGAGAAAAGCACACGTTAATTATATCATAG", "fluorescence intensity [a.u.]": 517}
{"Sequence": "CCTAACTACTATAAGCACATGGAATAGCTTCGTACA", "fluorescence intensity [a.u.]": 559}
{"Sequence": "GAATCAAAAAAAAGACGTGAGGTACTGTTTGCTTAG", "fluorescence intensity [a.u.]": 485}
{"Sequence": "CTAATACATTGAATGCTGATGTCCATCACACATTTC", "fluorescence intensity [a.u.]": 503}
{"data": "Series 4", "target": "Mitogen-activated protein kinase kinase kinase 14 (MAP3K14, Homo sapiens, UniProt Q99558)", "observed": "enzyme activity", "action": "inhibitor", "concentration": "0.5 µM", "reference": "control", "UniProt Q99558, sequence (whole entry, looked up)": "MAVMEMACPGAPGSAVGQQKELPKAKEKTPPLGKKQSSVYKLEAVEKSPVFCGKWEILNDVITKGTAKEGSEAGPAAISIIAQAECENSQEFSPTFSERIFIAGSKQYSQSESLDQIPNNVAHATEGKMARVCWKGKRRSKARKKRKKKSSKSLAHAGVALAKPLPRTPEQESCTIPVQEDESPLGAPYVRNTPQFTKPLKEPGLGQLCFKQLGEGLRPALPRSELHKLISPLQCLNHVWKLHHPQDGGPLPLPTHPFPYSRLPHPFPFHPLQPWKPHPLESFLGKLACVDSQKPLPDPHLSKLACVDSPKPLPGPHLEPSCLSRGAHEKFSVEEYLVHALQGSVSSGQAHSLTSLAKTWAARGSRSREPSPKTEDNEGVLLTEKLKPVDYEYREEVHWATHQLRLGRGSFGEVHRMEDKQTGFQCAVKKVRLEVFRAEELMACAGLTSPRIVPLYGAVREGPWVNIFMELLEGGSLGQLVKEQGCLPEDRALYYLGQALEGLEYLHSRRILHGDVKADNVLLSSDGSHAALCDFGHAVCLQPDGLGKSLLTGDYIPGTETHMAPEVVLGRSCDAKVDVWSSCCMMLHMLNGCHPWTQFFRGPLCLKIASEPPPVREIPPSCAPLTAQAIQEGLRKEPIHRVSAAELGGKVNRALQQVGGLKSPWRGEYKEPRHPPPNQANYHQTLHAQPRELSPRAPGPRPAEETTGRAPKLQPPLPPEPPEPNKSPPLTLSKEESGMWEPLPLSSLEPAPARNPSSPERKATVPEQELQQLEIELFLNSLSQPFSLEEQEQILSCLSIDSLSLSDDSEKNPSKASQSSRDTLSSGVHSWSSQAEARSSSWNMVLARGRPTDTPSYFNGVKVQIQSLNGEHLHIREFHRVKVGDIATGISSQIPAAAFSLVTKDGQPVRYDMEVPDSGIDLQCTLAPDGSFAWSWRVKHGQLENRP"}
{"SMILES": "O=C1NC(=O)C(c2cn(CCCn3ccnc3)c3ccccc23)=C1Nc1ccccc1", "remaining activity": "96.1%"}
{"SMILES": "CO[C@H]1C[C@@H]2CC[C@@H](C)[C@@](O)(O2)C(=O)C(=O)N2CCCC[C@H]2C(=O)O[C@H]([C@H](C)C[C@@H]2CC[C@@H](O)[C@H](OC)C2)CC(=O)[C@H](C)/C=C(\\C)[C@@H](O)[C@@H](OC)C(=O)[C@H](C)C[C@H](C)/C=C/C=C/C=C/1C", "remaining activity": "105%"}
{"SMILES": "O=C(Nc1cccc(Nc2cc(Nc3cccc(C(F)(F)F)c3)ncn2)c1)C1CC1", "remaining activity": "77.9%"}
{"SMILES": "Cc1ccc(Nc2nccc(N(C)c3ccc4c(C)n(C)nc4c3)n2)cc1S(N)(=O)=O", "remaining activity": "104%"}
{"SMILES": "CN(C)c1ccc(C=C2C(=O)Nc3ccccc32)cc1", "remaining activity": "67.7%"}
{"SMILES": "Cn1c2ccccc2c2c3c(c4c5ccccc5n(CCC#N)c4c21)CNC3=O", "remaining activity": "84.1%"}
{"SMILES": "Cn1sc(=O)n(Cc2ccccc2)c1=O", "remaining activity": "81.6%"}
{"SMILES": "COc1ccc(C(=O)Nc2sc3c(c2C(N)=O)CCCC3)cc1OC", "remaining activity": "88%"}
{"SMILES": "OCC(O)CCON=C1C(c2c(O)[nH]c3ccccc23)=Nc2ccccc21 (stereo not drawn)", "remaining activity": "89%"}
{"SMILES": "O=S(=O)(c1cccc2cnccc12)N1CCCNCC1", "remaining activity": "97.7%"}
{"SMILES": "Nc1[nH]nc2nc3ccccc3nc12", "remaining activity": "99.2%"}
{"SMILES": "CNC(=O)c1cc(Oc2ccc(NC(=O)Nc3ccc(Cl)c(C(F)(F)F)c3)cc2)ccn1", "remaining activity": "96.4%"}
{"SMILES": "O=C(O)c1ccc2c3c1cccc3c(=O)n1c3ccccc3nc21", "remaining activity": "94.8%"}
{"SMILES": "Nc1ccc2ncnc(NCCc3ccc(Oc4ccccc4)cc3)c2c1", "remaining activity": "109%"}
{"SMILES": "COc1ccc(OC)c2c(=S)c3ccccc3[nH]c12", "remaining activity": "96%"}
{"SMILES": "COc1ccc(CNC(=O)Nc2ncc([N+](=O)[O-])s2)cc1", "remaining activity": "84.2%"}
{"note": "Repeated from above (series 4):"}
{"SMILES": "Cn1sc(=O)n(Cc2ccccc2)c1=O", "remaining activity": "81.6%"}
{"SMILES": "CNC(=O)c1cc(Oc2ccc(NC(=O)Nc3ccc(Cl)c(C(F)(F)F)c3)cc2)ccn1", "remaining activity": "96.4%"}
{"SMILES": "COc1ccc(C(=O)Nc2sc3c(c2C(N)=O)CCCC3)cc1OC", "remaining activity": "88%"}
{"SMILES": "Cn1c2ccccc2c2c3c(c4c5ccccc5n(CCC#N)c4c21)CNC3=O", "remaining activity": "84.1%"}
{"SMILES": "COc1ccc(OC)c2c(=S)c3ccccc3[nH]c12", "remaining activity": "96%"}
{"SMILES": "Cc1ccc(Nc2nccc(N(C)c3ccc4c(C)n(C)nc4c3)n2)cc1S(N)(=O)=O", "remaining activity": "104%"}
